# Assay results pooled from the literature.
# A part holds a random share of what one study measured. Changes are numbered by the printed parent chain.

# Block 1
# Target: UBE2D2 UBC core domain (UniProt P62837)
# Sequence of UniProt P62837 (whole entry, looked up): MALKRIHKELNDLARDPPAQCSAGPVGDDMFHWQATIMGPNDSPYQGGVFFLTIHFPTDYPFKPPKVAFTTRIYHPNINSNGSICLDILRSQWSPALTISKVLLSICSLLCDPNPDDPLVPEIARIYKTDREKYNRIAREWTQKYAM
# Method: yeast two-hybrid
# Sample: yeast
# Notes: mostly zero background
# Baseline: not given
# Reading: higher = stronger interaction
# B1: RNF4 RING domain (UniProt P78317); chain TGLRPSGTVSCPICMDGYSEIVQNGRLIVSTECGHVFCSQCLRDSLKNANTCPTCRKKINHKRYHP
# B2: TRIM10 RING domain (UniProt Q9UDY6); chain SVTSLADEVNCPICQGTLREPVTIDCGHNFCRACLTRYCEIPGPDLEESPTCPLCKEPFRPGSFRP
# B3: RFPL2 RING domain (UniProt O75678); chain MAALFQEASSCPVCSDYLEKPMSLECGCAVCLKCINSLQKEPHGEDLLCCCSSMVSRKNKIRR
Sequence,lacZ reporter activity
B1 (RNF4 RING domain),3420
KIKDLNEHIVCCLCAGYFVDATTITECLHTFCKSCIVKYLQTSKYCPMCNIKIHETQPLL (PCGF1 RING domain (UniProt Q9BSM1)),0
B2 (TRIM10 RING domain),0
B3 (RFPL2 RING domain),0

# Block 2
# Target: CCND3, cyclin fold, Cln2 fusion (human)
# Method: yeast growth competition, sequencing
# Sample: yeast
# Notes: weak parent motif
# Baseline: not given
# Reading: higher = stronger binding
# Parent: viral docking peptide; PGASRRLFGSSAD; partner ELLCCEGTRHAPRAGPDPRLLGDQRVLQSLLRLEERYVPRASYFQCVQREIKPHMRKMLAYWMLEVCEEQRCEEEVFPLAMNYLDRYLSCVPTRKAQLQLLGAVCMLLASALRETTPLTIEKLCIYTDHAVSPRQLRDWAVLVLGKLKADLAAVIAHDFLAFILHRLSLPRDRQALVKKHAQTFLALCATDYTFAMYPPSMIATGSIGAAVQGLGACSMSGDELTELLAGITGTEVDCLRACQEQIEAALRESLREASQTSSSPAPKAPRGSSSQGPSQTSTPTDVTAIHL
Variant,normalised enrichment score
S11A,0.123
S4A,0.126
P1A,0.0977
F8A,0.0891
F8L,0.402
D13A,0.13
G9A,0.203
R5A L7A,0.222
R5K,0.185

# Block 3
# Target: RNA binding protein fox-1 homolog 2, RRM domain, GST-SBP tag (RBFOX2, Homo sapiens, UniProt O43251-10, residues 100-194)
# Method: RNA Bind-n-Seq
# Form: RNA
# Sample: in vitro
# Tested at: 365 nM
# Notes: natural RNA segment, single round, ends assumed
# Baseline: no-protein control
# Reading: higher = stronger binding
# Shared flanks, not repeated: GGGAGUUCUACAGUCCGACGAUC … UGGAAUUCUCGGGUGCCAA
# Construct (chain): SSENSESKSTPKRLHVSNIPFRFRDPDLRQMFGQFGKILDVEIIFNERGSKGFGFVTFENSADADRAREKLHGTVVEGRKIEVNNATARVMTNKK
Sequence,RBNS enrichment (R)
CAAUUGAUAUCAAAAGGUUUCUCCUGUAAUAUUUUAUCCCUGGACUUGUCAAGUGAAUUCUUUGCAUGUUCAAAACGGAAACCAUUGAUUAGAACUACAUUCUUUACCCC,1.36
CUUUCUUCAGGACCUGCACUUAAUGUUUGAGGCUGUCUCUCCAGUCCCUCUCAGCAGGAGGGGUAAUGGUAGAUACAGCCUCCAUACAUCUCUUUCUCCCCUUGUUUACC,0.192
UGAGAAUUCAUGAGCACUUUAACUCUAAACUCUGAAUUUCAAAGCUUGAUGUGAAGUCCUCUAGAAUGUUUACAUUUACUAAGGUGUGCUGGGUCCUGUCUCUUUUGACU,0.218
GACAUAUAGCCAAUACAAAUCAAAUGCCGGAGGUGUUUGAUGCCAUAUUUGCAAAUUGCCAUCUAUUGAAAUUCUCGUCACACUACAUAGACAUAAUUGUUAUCUCCUUU,0.381
CUGUGUCAUCAACUUAUCCUAGUACCUCAGUGUUCAUUCCUGUUACCUGCAUAUCUUCUUAAAAGAAAUAGCUGUUAUUAAUGCCUUUUUGUUUUCCAUUGAGUGUACAC,0.462
UGGGAAGCUUGAGGGUUCCCUUCUUAGGACCAGCGGGUGGUUUGUGAAAUGCUUAGCUGGUUAGCAUCCGAGGUGAGGGUCUGAAGGAGUCUCUCUGUCUUCUUCUUUCU,0.466
GAACCCAGGAACAUCUACAGCAGUCCCCAGAAAAACAUUCUUUCUGAGGAGGUUUAGGUGAAGUUGUGUUUGUGAACUCGGAGUUCUUCUCUGUAUUUGCCCAGGAUGGA,0.329
GCAAUCAAGGGGAGAAAACACAGUGUAAGCCGCUGUCAAUAAAUGACACCCAGACCUUCCAGCUGCACUCGGGGUGUGUUUUCAAUUUGUGGGAGCGAGAGGAUCAGAAC,0.866

# Block 4
# Target: HLA class I histocompatibility antigen, A alpha chain, allele A*80:01 (Homo sapiens, UniProt P04439)
# Effect on: peptide-MHC binding
# Form: peptide
# Tested at: concentration not given
Sequence,binding
FHRKKTDAL,inactive
SIYYTLVRM,inactive
LTSSSKYTY,inactive
VLKLRFWLI,inactive
WTDLFDNKV,inactive

# A few entries again (block 4):
Sequence,binding
VLKLRFWLI,inactive
WTDLFDNKV,inactive
